{"data": "Experimental data of several laboratories", "note": "Every numbered part comes from another study and shows a few of its results, in no order."}
{"data": "Block 1", "target": "RNA binding protein fox-1 homolog 2, RRM domain, GST-SBP tag (RBFOX2, Homo sapiens, UniProt O43251-10, residues 100-194)", "method": "RNA Bind-n-Seq", "molecule type": "RNA", "matrix": "in vitro", "tested at": "365 nM", "setting": "natural RNA segment, single round, ends assumed", "baseline": "no-protein control", "direction": "higher = stronger binding", "constant ends, left off below": "GGGAGUUCUACAGUCCGACGAUC … UGGAAUUCUCGGGUGCCAA", "Target sequence (chain)": "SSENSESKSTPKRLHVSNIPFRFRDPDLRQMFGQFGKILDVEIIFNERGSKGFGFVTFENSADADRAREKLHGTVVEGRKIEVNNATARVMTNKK"}
{"Sequence": "AACAGAAGCCUCAAUGAUGAUCACUUUGAAUUGCUUGUGAUUUCAAAAAUAAAGCAGUGAAGCAAUACUUGUGUACACUGGUACUUUAUAAUGCUAACUAUAAACUGGUU", "RBNS enrichment (R)": 0.846}
{"Sequence": "CUGUUUCUGACAAACUAUCAAGACAUUCCGUCCCUCAUCCACCUCAGCUCCCAAAGGCCCACUGCAGUGGUGGUUCAGUGAGCACUCUGAUGAGUGCUGAUGGGCUAACC", "RBNS enrichment (R)": 0.28}
{"Sequence": "CUGUGUCUGGAGGAUUUUGUCACCUACAAGCCUUGUCUUUACCUCACCUGCUCCCUGCCCAUAUCUACCACAGGCCACUUUGGCAUGGUAUGUAAGCUGAGCUCUUCAUU", "RBNS enrichment (R)": 0.354}
{"Sequence": "CCAGGCAGCUGGUCACUUACCAGGUGUGGACUUACGUUGCUGGGCUUGCAAAUGAAUUGCUAGUCCCUCAUUGUGCGGGUCUAUGUGGAGCUUUAAUCAGUAAAUGUCUC", "RBNS enrichment (R)": 0.292}
{"Sequence": "UUUGUGUACAAAAGGCAGGAAAAAGUAUUUGAUACCACUGUACAUAAGAGUUUUCAGAGAUUUCAUAUAUAUUAUAUAUCUUUUACAGAGACUAUUUUAAUCCUUAGCGC", "RBNS enrichment (R)": 0.546}
{"Sequence": "AAUGUAGUACCUCAUAGUUAAAACUUUCUUCAUUCACAGCCUUUCCCUUUCACAGUAAAACAUGCUUAGCUUUCUGUGUCUUUCUUUUAGUCAUGAUAAAAAUGAAGCUG", "RBNS enrichment (R)": 0.892}
{"Sequence": "ACCCUCAGGUCUCCUACACUGGCCCCAUUUUACUUUGGGGUCCAAGGACAGGAUGGUCAACAGGGCAGGGUGGACAGCGUGCCAGCGCCGCGCAGGGCCACCUCCCUGGG", "RBNS enrichment (R)": 0.242}
{"Sequence": "UUUUUCUAAUGUAUUUAUAAAAGAUCUUUUCCCAUUUAUGCUGGGAAAGUGUUUUUCAAACUCAGUGACAAGGACUUUGGUUUUUGUAAGACUGUUGAUGAUAUGAAGGC", "RBNS enrichment (R)": 0.273}
{"Sequence": "AGGAACCUGGGGCUGAACAGGUUAUCCCUGUCAGGAGCCCUGGACUGGGCUGCAUCUCAGCCCCACCUGCAUGGUAUCCAGCUCCCAUCCACUUCUCACCCUUCUUUCCU", "RBNS enrichment (R)": 0.293}
{"Sequence": "CACAUUCACCUCCGACACGCCAUUUCACCUCCCUCGCCACACUGUUAGCCUUAGUGAUUGCAGUGAACACUGUUUACACACCGUGAAUCCAUUCCCACCAGUCCAUUUCA", "RBNS enrichment (R)": 0.804}
{"Sequence": "AUAGUAGUUUCACAUCUGUAUUAUUUCCAAGUUUAAACUGUAAGCUCCUUGAGGGCAGGGAUUAUAACUGUAACAUUUGUAUCACUGCACUCGCUUUAGUGCCUAGUACA", "RBNS enrichment (R)": 0.375}
{"Sequence": "GGUUUCUGUCAUAAUGUGCUUUAUCUGAUUGACUCCAAACAUCCCGAAAUGUCACCUGCAGAUUUCUCGUGGGAACCAAUAUGUACAUGUUUGCAAUUAUGCUGUGAGAA", "RBNS enrichment (R)": 0.606}
{"data": "Block 2", "target": "Transcription factor SOX-2, HMG box (Sox2, Mus musculus, UniProt P48432, residues 41-119)", "method": "Spec-seq", "molecule type": "double-stranded DNA, one strand shown", "matrix": "in vitro", "tested at": "not given", "setting": "whole probe, mean of replicates", "baseline": "not given", "direction": "lower = stronger binding", "constant ends, left off below": "GAGTCGTCTCGTCAGCAC … CCGTAGAGCACTCAGGTC", "UniProt P48432, sequence (41-119, looked up)": "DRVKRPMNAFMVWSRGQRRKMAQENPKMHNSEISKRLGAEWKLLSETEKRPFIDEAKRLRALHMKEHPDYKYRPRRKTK"}
{"Sequence": "CATATAG", "relative binding energy [ln ratio]": -0.432}
{"Sequence": "CATGATG", "relative binding energy [ln ratio]": 0.0882}
{"Sequence": "CATTGGT", "relative binding energy [ln ratio]": -0.326}
{"Sequence": "CATACAG", "relative binding energy [ln ratio]": -0.823}
{"Sequence": "CATTTGA", "relative binding energy [ln ratio]": -0.247}
{"Sequence": "TTGCGTT", "relative binding energy [ln ratio]": 1.14}
{"Sequence": "CATAACT", "relative binding energy [ln ratio]": 0.0719}
{"Sequence": "CATTGAA", "relative binding energy [ln ratio]": -1.37}
{"Sequence": "TCGCGTT", "relative binding energy [ln ratio]": 1.37}
{"Sequence": "CATTGGG", "relative binding energy [ln ratio]": -0.228}
{"Sequence": "CACTGTT", "relative binding energy [ln ratio]": -0.824}
{"data": "Block 3", "target": "Histone acetyltransferase KAT6A, winged helix 1, GST fusion (KAT6A, Homo sapiens, UniProt Q92794, residues 1-85)", "method": "protein binding microarray", "molecule type": "double-stranded DNA, one strand shown", "matrix": "in vitro", "tested at": "not given", "setting": "8-mer, flanks averaged, mean of 2 arrays, mostly near background", "baseline": "not given", "direction": "higher = stronger binding", "Target sequence (chain)": "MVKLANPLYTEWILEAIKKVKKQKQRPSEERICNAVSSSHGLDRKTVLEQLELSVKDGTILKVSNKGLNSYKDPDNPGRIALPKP"}
{"Sequence": "AAATACTA", "E-score": -0.112}
{"Sequence": "CGCCTGTA", "E-score": 0.00456}
{"Sequence": "CAGTTCGA", "E-score": -0.15}
{"Sequence": "CTGGCTGC", "E-score": -0.0561}
{"Sequence": "CAGAGTCA", "E-score": -0.0347}
{"Sequence": "CGTACCGA", "E-score": 0.151}
{"Sequence": "ATAACCCG", "E-score": 0.239}
{"Sequence": "GTACACAC", "E-score": 0.0516}
{"Sequence": "AGGCAAGG", "E-score": -0.219}
{"Sequence": "ATTTCCAA", "E-score": -0.237}
{"Sequence": "CGTATCAA", "E-score": 0.0763}
{"Sequence": "AGCAAGAT", "E-score": -0.205}
{"Sequence": "TCGGTTAA", "E-score": 0.062}
{"Sequence": "ATATCCAC", "E-score": -0.0874}
{"Sequence": "GTCAGCAC", "E-score": 0.081}
{"Sequence": "GTGTCATA", "E-score": -0.231}
{"Sequence": "CAATGTCG", "E-score": 0.00612}
{"Sequence": "CACTGCTC", "E-score": -0.146}
{"Sequence": "GACGCGTC", "E-score": 0.378}
{"Sequence": "AATGACTC", "E-score": -0.137}
{"Sequence": "CTGTACTC", "E-score": -0.108}
{"Sequence": "CCTTAAGG", "E-score": -0.271}
{"data": "Block 4", "target": "Centromere-binding protein 1, full length, N-terminal tag (CBF1, Saccharomyces cerevisiae, UniProt P17106, residues 1-351)", "method": "protein-binding microarray", "molecule type": "double-stranded DNA, one strand shown", "matrix": "in vitro", "tested at": "0.8 µM", "setting": "whole 60-bp probe, no competitor", "direction": "higher = stronger binding", "constant ends, left off below": "… GTCTTGATTCGCTTGACGCTGCTG", "UniProt P17106, sequence (whole entry, looked up)": "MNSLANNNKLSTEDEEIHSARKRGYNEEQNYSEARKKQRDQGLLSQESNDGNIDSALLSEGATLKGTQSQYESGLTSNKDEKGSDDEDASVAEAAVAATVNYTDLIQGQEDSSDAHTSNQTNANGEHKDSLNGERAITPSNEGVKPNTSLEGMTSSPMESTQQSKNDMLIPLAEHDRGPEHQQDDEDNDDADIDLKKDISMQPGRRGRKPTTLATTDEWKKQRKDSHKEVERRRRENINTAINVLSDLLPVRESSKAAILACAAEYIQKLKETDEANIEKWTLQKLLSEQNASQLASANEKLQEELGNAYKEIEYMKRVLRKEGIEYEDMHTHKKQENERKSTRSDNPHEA"}
{"Sequence": "CTAATAGGAATTTAGACGCTGATGGATGTTATCTTC", "fluorescence intensity": "511 a.u."}
{"Sequence": "CTAGTATTCGCACTTAGCGTGCTCGCAACACAATTC", "fluorescence intensity": "513 a.u."}
{"Sequence": "CTAATCCTAGAAAAACACGTTTGCTCACTCGATTTC", "fluorescence intensity": "494 a.u."}
{"Sequence": "CTAACGCTTTTCGATCACATCGAATCCCTTCGGTTC", "fluorescence intensity": "530 a.u."}
{"Sequence": "TGTACGAAGCTATGTGACCCAAATATAGTAGTTAGG", "fluorescence intensity": "584 a.u."}
{"Sequence": "GAAAGGAGACACCGCCACCACCTGAGCCTCCATTAG", "fluorescence intensity": "497 a.u."}
{"Sequence": "CTAAGAAGAAACACGCACGTGTACCCAAAAATATTC", "fluorescence intensity": "4800 a.u."}
{"Sequence": "GAATGCCAAGGGATGCACGAGAAAAGCACTTATTAG", "fluorescence intensity": "571 a.u."}
{"Sequence": "GAAATCTTCAATGGACCCGTGCTTTGTAACCCGTAG", "fluorescence intensity": "646 a.u."}
{"Sequence": "CTAGCAAGAACACGTCACCGCATTAATAACCAATTC", "fluorescence intensity": "534 a.u."}
{"Sequence": "GAAAACAGAGAAACGATCATGATGGGAAAGCGGTAG", "fluorescence intensity": "496 a.u."}
{"Sequence": "GAACTAGTATGTTGCCACCTGCAGAAATAAATATAG", "fluorescence intensity": "585 a.u."}
{"Sequence": "GAAAATTTAGAGCTCAACACCACCATTGAGAACTAG", "fluorescence intensity": "484 a.u."}
{"Sequence": "GAAGAGTTCTTCAAAAATCTGATGTAAAATTTATAG", "fluorescence intensity": "503 a.u."}
{"Sequence": "GAAAACCTTGGCACTCACACGTGGGACTAGCACTAG", "fluorescence intensity": "1570 a.u."}
{"Sequence": "CTACGGCTGAAAATTTTCACCACGAGCAGTTTCTTC", "fluorescence intensity": "594 a.u."}
{"data": "Block 5", "target": "RING finger protein unkempt homolog, zinc fingers 1-6, GST-SBP tag (UNK, Homo sapiens, UniProt Q9C0B0, residues 30-357)", "method": "RNA Bind-n-Seq", "molecule type": "RNA", "matrix": "in vitro", "tested at": "not given", "setting": "RNA with constant flanks, ends assumed", "baseline": "input RNA pool", "direction": "higher = stronger binding", "constant ends, left off below": "GGGAGUUCUACAGUCCGACGAUC … CAACAGAGGAUUGAGCAUCA", "UniProt Q9C0B0, sequence (30-357, looked up)": "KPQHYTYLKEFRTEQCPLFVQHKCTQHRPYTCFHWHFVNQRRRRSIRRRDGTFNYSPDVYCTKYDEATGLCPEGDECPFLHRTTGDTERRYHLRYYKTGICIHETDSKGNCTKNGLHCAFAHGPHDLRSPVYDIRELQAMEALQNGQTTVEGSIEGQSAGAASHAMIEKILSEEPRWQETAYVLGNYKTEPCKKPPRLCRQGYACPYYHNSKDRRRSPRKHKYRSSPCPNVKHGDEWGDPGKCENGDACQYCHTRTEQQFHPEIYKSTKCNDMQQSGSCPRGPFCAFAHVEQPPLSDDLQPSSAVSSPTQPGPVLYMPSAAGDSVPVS"}
{"Sequence": "AGCGGUGGGAACCACAUUGGCGGGUCUGGGUUGGGGUUAAAGGGAGAUUGGAGAUUUGAUUCCGGACCACAAAAAGGCUUUGUGGCUAACAUGGCGUGGCCGUGCAUCACAAGGGCCUGC", "bound/input enrichment [ratio]": 0.157}
{"Sequence": "AUAAGUUAUACUUUCCGUUCAGUUUGUGUUUGUUCCAUAUGCGGAGUGUGGCACUCUGGCCCGCUGAGUUCAGUUCCCACGGGGACUCCUGUUUCUUAGGAAGCAUGCCAAAUGCCAGCU", "bound/input enrichment [ratio]": 0.225}
{"Sequence": "CUGCCCUACGCGCUGCAUAAGUGGAGCUCCUUCUCCUCCACCUACCUUCCCGAGAACAUUUCCGUGGAUAAACCAAAUGAUCAGUCUUCCAGAUGGUCUUCAGAGAGCAACUAUCCUCCC", "bound/input enrichment [ratio]": 0.353}
{"Sequence": "AGAUUCCCCCUCCUGAGACCUCCUCCGAAGUUGGAGUCUCUUACAGAUGCCUCAUCCCCUGUCCGCGUUUUAGUUUGGACCACCCAGCCUUGGACAAUUCCCGCCAACCAGGCAAUUUGC", "bound/input enrichment [ratio]": 0.63}
{"Sequence": "UAUUUUGUAAAUACUGUAUACCAUGUAUUAUGUGUACAUUGUUCAUACUUGAGAGGACAUUACCGUUUUGUUAUGAAAGUAUGUAUUUUGCCCUGCAGCUGUGGUGGUGUUUUGUAUAUA", "bound/input enrichment [ratio]": 0.187}
{"Sequence": "GAACCUGUUGCUGAUGAAGAAGAGGAAGACAGUGAUGAUGAUGUUGAACCUAUUACUGAAUUCCGAUUUGUGCCUAGUGAUAAAUCAGCGUUGGAGGCAAUGUUCACUGCAAUGUGCGAA", "bound/input enrichment [ratio]": 0.175}
{"Sequence": "CUUCCGGGAGGUGCUUGUGUGCCUGGUGCGGGAGCUACGGGGCCCAGGGAUUGUGUUUAAAGCCGUGCUUCUACCAACAUGUCCCGUGGUUCCAGCGCCGGUUUUGACCGCCACAUUACC", "bound/input enrichment [ratio]": 0.109}
{"Sequence": "GGUGAUUAUAGCAAUCAGCAGAGUGGUUAUGGGAAAGUAUCCAGGCGAGGUGGACAUCAAAACCGCUACAAACCAUACUAAAUUAUUCCAUUUGCAACUUAUCCCCAACAGGUGGUGAAG", "bound/input enrichment [ratio]": 0.349}
{"Sequence": "CAUGGCCAUGGUAAAAUGGAACUUCCAGAUUACAGACAGUGGAAAAUUGAAGGGACGCCAUCCGAAACGGUGCAGAAGAAGCUUGCUGCCCGAGGGCUGAGGGAUCCAUGGGCUCGCAAU", "bound/input enrichment [ratio]": 0.217}
{"Sequence": "UUCCACUUUUUUUUCCUUCAUGGAGACUGUUUGUUUGGCUUUCUUCCAUUGUUGUUUUUGCCGCAUUUAUUUCAGAAAUGUGUAUUUCCAUAAUCCAGAGGUUGUAAAACCACUAGUGUU", "bound/input enrichment [ratio]": 0.327}
{"Sequence": "UUGCCAUAUUAAUCAUCUUAGUUCCAUACACACUGAGACUUUAAAAGGGAAAAACCACUCCCGCAAAUAAUUGUCAAUUAUAAACCUGUAUGUAAAACAUUCUUGAAAACCUAGAGUUGG", "bound/input enrichment [ratio]": 0.322}
